{"data": "Measurements pooled from the literature", "note": "Every numbered part comes from another study and shows a few of its results, in no order. Positions count from the first letter of the parent shown."}
{"data": "Sample 1", "target": "Max dimerization protein 1, bHLH-zipper, MAX partner unstated (MXD1, Homo sapiens, UniProt Q05195, residues 56-136)", "technique": "protein-binding microarray", "form": "double-stranded DNA, one strand shown", "medium": "in vitro", "tested at": "not given", "notes": "k-mer, scored over probes, only values ≥0.25", "reading": "higher = stronger binding", "Construct (chain)": "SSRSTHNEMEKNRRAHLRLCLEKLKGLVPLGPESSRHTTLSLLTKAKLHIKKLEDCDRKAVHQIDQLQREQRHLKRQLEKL"}
{"Strand": "CACGCGTC", "E-score": 0.42}
{"Strand": "CCCCCCCA", "E-score": 0.37}
{"Strand": "GGGCACGA", "E-score": 0.271}
{"Strand": "ACTCGTGC", "E-score": 0.404}
{"Strand": "CATGCATG", "E-score": 0.407}
{"Strand": "CGTGGTGC", "E-score": 0.32}
{"Strand": "CCCTCTCC", "E-score": 0.27}
{"Strand": "ACCACGTC", "E-score": 0.262}
{"Strand": "CGTGGCTC", "E-score": 0.294}
{"Strand": "CGCCGCGC", "E-score": 0.3}
{"Strand": "CGTGCTCC", "E-score": 0.31}
{"Strand": "ACATGCCT", "E-score": 0.346}
{"Strand": "CTCCATGC", "E-score": 0.391}
{"data": "Sample 2", "target": "RING finger protein unkempt homolog, zinc fingers 1-6, GST-SBP tag (UNK, Homo sapiens, UniProt Q9C0B0, residues 30-357)", "technique": "RNA Bind-n-Seq", "form": "RNA", "medium": "in vitro", "tested at": "not given", "notes": "RNA with constant flanks, human and mouse sites, ends assumed", "baseline": "input RNA pool", "reading": "higher = stronger binding", "UniProt Q9C0B0, sequence (30-357, looked up)": "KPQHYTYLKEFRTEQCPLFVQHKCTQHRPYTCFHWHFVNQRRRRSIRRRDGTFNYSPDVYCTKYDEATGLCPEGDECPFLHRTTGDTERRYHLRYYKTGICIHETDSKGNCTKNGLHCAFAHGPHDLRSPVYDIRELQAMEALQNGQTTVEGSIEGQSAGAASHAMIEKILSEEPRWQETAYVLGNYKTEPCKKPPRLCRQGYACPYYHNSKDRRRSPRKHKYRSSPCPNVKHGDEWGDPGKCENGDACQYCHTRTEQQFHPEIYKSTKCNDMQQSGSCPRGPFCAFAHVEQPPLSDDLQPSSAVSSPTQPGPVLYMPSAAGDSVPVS"}
{"Strand": "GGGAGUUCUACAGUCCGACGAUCUAUGUGCAUAUAUAUGCAUGUUGUCAGUUAUUGUCUCUCAGACCUAUUUAAUUGUACUUUAUUUCAGGCCCCAAUCCUUUGAUUUACUCAGGUUAUCUUCCUGACUCUGAACUACUUCUACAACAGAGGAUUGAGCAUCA", "bound/input enrichment": "0.861 ratio"}
{"Strand": "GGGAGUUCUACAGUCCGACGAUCGUGGUGUGAACACGGCUCACUGCAGCCUCAACCUCCUGGACUCAGAGAUGUCGGCUUAUUUAUAGGAAUUGCUUGAAGCCAGAGUCAUGGUGGAUGUCGGAAAGUGGCCCAUCUUCACUCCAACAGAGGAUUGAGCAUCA", "bound/input enrichment": "0.162 ratio"}
{"Strand": "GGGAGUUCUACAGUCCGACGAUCAGAAAUGAAACUUCUCAAAUGAGCCAACCUGAGUCACAAGAUCACAGGUUUGUGCCAGCAACAGAAAGUGAAAAAAAAUUUCAGAAGAGACUUCAGGAAAUUCUCAAACAGAAUGAUUUCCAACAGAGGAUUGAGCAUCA", "bound/input enrichment": "0.133 ratio"}
{"Strand": "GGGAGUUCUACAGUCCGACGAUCAUACAGUGCCAGAACAAAGGCUGGGAUGGCUACGAUGUACAGUGGGAAUGUAAGACCGACUUGGAUAUUGCAUACAAAUUUGGCAAAACUGUGGUGAGCUGUGAAGGCUACGAGUCCUCUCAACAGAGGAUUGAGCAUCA", "bound/input enrichment": "0.169 ratio"}
{"Strand": "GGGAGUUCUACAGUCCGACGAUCACCACACCCCCUAAUCAAGGAAGGCCAGAUUCUCCAGUCUAUGCUAACCUACAGGAACUGAAAAUAUCACAGUCUGCUCUUCCUCCUCUUCCUGGGAGCCCAGCAAUUCAAGUUAAUGGGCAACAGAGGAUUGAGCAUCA", "bound/input enrichment": "0.142 ratio"}
{"Strand": "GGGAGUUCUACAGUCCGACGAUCAUCUUCCUCGUUUCCUCCACCCAAUUCUCAUCUCCUUUAUUAAUGCAGAUCCCAGAUAUAUUUUAUCAAGAAAUUUUGUAGCAUAUAUUUGUGUUGUUUUAUUCGUGGUCAUAGUUGCUUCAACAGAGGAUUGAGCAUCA", "bound/input enrichment": "0.653 ratio"}
{"Strand": "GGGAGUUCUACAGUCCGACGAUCCAGAAGAAAGAUACAGGCCAUAUCUAUGCAAUGAAGAUAUUGAGAAAGUCUGAUAUGCUUGAAAAAGAGCAGGUGGCCCAUAUCCGAGCAGAAAGAGAUAUUUUGGUAGAAGCAGAUGGUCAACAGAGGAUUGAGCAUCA", "bound/input enrichment": "0.219 ratio"}
{"data": "Sample 3", "target": "ABI1, truncated, D143A, DHFR fusion (Arabidopsis thaliana)", "technique": "DHFR PCA, deep sequencing", "medium": "yeast", "notes": "methotrexate growth selection, single substitutions", "with": "(+)-ABA 0.0091 µM", "baseline": "wild-type fitted maximum", "reading": "higher = stronger binding", "starting sequence": "PYL1, truncated, DHFR fusion (Arabidopsis thaliana); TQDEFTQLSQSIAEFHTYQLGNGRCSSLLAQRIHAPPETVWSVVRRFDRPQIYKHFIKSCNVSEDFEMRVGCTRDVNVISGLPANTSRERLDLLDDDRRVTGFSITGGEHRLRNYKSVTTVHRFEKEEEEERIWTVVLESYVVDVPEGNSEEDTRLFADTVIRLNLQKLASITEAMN"}
{"Substitution": "I172M", "relative binding score [%]": -0.752}
{"Substitution": "K126E", "relative binding score [%]": 36}
{"Substitution": "Q2Y", "relative binding score [%]": 73.9}
{"Substitution": "C72Y", "relative binding score [%]": 1.3}
{"Substitution": "V40P", "relative binding score [%]": -1.42}
{"Substitution": "R46H", "relative binding score [%]": 3.9}
{"Substitution": "Y115V", "relative binding score [%]": 5.82}
{"Substitution": "S150G", "relative binding score [%]": 0.111}
{"Substitution": "V40I", "relative binding score [%]": -3.81}
{"Substitution": "D92S", "relative binding score [%]": 0.678}
{"Substitution": "V70S", "relative binding score [%]": -2.23}
{"data": "Sample 4", "target": "CCNF, cyclin fold, Cln2 fusion (human)", "technique": "yeast growth competition, sequencing", "medium": "yeast", "notes": "strong parent motif", "baseline": "not given", "reading": "higher = stronger binding", "starting sequence": "CDKN1B docking peptide (human); PSACRNLFGPVDH"}
{"Substitution": "N6L", "normalised enrichment score": 3.72}
{"Substitution": "L7G", "normalised enrichment score": 0.607}
{"Substitution": "F8N", "normalised enrichment score": 0.317}
{"Substitution": "L7Q", "normalised enrichment score": 0.0641}
{"Substitution": "G9P", "normalised enrichment score": 6.39}
{"Substitution": "R5Q", "normalised enrichment score": 0.236}
{"Substitution": "S2I", "normalised enrichment score": 6.07}
{"Substitution": "P1M", "normalised enrichment score": 8.69}
{"Substitution": "C4E", "normalised enrichment score": 0.682}
{"Substitution": "A3T", "normalised enrichment score": 7.45}
{"Substitution": "R5K F8L", "normalised enrichment score": 0.133}
{"Substitution": "S2M", "normalised enrichment score": 5.59}
{"Substitution": "S2L", "normalised enrichment score": 5.57}
{"Substitution": "F8L", "normalised enrichment score": 0.989}
{"Substitution": "L7F", "normalised enrichment score": 1.04}
{"Substitution": "G9L", "normalised enrichment score": 4.24}
{"data": "Sample 5", "target": "Sal-like protein 4, full length isoform B (SALL4, Homo sapiens, UniProt Q9UJQ4-2, residues 1-616)", "technique": "universal PBM", "form": "double-stranded DNA, one strand shown", "medium": "in vitro", "tested at": "not given", "notes": "8-mer, flanks averaged, mean of replicates", "reading": "higher = stronger binding", "Construct (chain)": "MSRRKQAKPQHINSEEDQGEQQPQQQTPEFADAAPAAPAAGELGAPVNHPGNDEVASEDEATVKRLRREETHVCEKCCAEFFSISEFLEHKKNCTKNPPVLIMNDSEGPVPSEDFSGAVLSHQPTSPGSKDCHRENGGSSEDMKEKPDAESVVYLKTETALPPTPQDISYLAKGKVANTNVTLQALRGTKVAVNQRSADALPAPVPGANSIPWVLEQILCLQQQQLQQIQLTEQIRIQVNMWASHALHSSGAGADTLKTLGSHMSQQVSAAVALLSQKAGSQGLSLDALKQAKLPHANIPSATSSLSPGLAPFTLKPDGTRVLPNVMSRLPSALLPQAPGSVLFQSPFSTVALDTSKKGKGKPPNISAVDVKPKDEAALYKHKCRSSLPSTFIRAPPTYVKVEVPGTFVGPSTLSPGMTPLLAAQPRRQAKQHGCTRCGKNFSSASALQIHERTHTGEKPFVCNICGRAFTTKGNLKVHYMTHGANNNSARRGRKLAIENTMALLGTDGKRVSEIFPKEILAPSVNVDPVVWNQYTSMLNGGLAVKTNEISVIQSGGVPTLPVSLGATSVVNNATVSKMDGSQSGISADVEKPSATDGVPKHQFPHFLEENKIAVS"}
{"Strand": "CCCAATTC", "E-score": 0.068}
{"Strand": "CTCACGCC", "E-score": -0.349}
{"Strand": "AAGGCTTG", "E-score": -0.0314}
{"Strand": "TAAGGTCA", "E-score": 0.128}
{"Strand": "AATGAGTC", "E-score": 0.106}
{"Strand": "GCGGCAAA", "E-score": -0.168}
{"Strand": "CCTGGTAG", "E-score": -0.337}
{"Strand": "GCCATGAC", "E-score": -0.0953}
{"Strand": "ACGAAACC", "E-score": 0.0459}
{"Strand": "ATACAAGC", "E-score": 0.102}
{"Strand": "CTAGCTAG", "E-score": -0.098}
{"Strand": "TATCCTGA", "E-score": 0.144}
{"Strand": "AACGAAAC", "E-score": 0.094}
{"Strand": "GCAACAGA", "E-score": -0.0477}
{"data": "Sample 6", "target": "Fragile X messenger ribonucleoprotein 1, C-terminal low-complexity region (Fmr1, Mus musculus, UniProt P35922)", "technique": "RNA Bind-n-Seq", "form": "RNA", "medium": "in vitro", "tested at": "200 nM", "notes": "whole 134-nt RNA, ends assumed", "with": "150 mM LiCl", "baseline": "input library", "reading": "higher = stronger binding", "all molecules": "7-deaza-guanosine replaces G"}
{"Strand": "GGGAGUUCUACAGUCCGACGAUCUGGUAUUCAUGGGUAGUUUGAAAUAUCCAGAUGAGAAUGGAUUUGAUGCCUUCCUGAAGAAGCAUGGGGGUAGUGAUAAUGCCUCAACUGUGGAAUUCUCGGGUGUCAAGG", "log2 enrichment": -1.05}
{"Strand": "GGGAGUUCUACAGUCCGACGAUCGUCCUGUGCUACACAUCGUAUGUACCGAAUCGGGGAAAGGGGAAAAAGGGGUUUGGGGAAAGUAUUAUGUUACGCCGUUCGGAUCUGCACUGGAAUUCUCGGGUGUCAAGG", "log2 enrichment": -0.558}
{"Strand": "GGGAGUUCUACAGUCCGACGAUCAAGUCCUGUGCUACACAUCGUAUGUACCGAAUCAAAUUUUUAAACCCAAACCCAAAAAAGUAUUAUGUUACGCCGUUCGGAUCUGCACUUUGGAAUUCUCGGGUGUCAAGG", "log2 enrichment": 0.527}
{"Strand": "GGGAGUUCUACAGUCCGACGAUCUCCUGUGCUACACAUCGUAUGUACCGAAUCAAACCCCCAAACCCCCAAAUUUUUUUAAAAAAGUAUUAUGUUACGCCGUUCGGAUCUGCAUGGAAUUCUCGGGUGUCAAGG", "log2 enrichment": 1.55}
{"Strand": "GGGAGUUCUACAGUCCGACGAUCAAGUCCUGUGCUACACAUCGUAUGUACCGAAUCGGGGUUUUGGUUUUGGGUUUUGGAAAGUAUUAUGUUACGCCGUUCGGAUCUGCACUUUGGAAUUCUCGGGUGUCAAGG", "log2 enrichment": -1.94}
{"Strand": "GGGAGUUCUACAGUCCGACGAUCGGCACCCUUUGAAGGGGAGGAUGAAGAUGAACUCUUCCAAUCCAUCAUGGAACACAACGUAGCCUAUCCCAAGUCUAUGUCCAAGGAAGCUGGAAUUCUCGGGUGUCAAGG", "log2 enrichment": 0.949}
{"Strand": "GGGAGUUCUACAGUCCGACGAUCCUCAAGUCCUGUGCUACACAUCGUAUGUACCGAAUCGGUUGGGGUUGGGUUGGGAAAGUAUUAUGUUACGCCGUUCGGAUCUGCACUUCCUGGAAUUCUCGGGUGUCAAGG", "log2 enrichment": -0.037}
{"Strand": "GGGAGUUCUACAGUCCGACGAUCGUCCUGUGCUACACAUCGUAUGUACCGAAUCGGGGAAAAGGGGAAAAGGGGAAAAGGGAAAGUAUUAUGUUACGCCGUUCGGAUCUGCACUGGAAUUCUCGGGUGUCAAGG", "log2 enrichment": 0.758}
{"Strand": "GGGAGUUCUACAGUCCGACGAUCAGUCCUGUGCUACACAUCGUAUGUACCGAAUCGGGUUUGGGAAAAAAAGGGAAAGGGAAAGUAUUAUGUUACGCCGUUCGGAUCUGCACUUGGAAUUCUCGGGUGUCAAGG", "log2 enrichment": -1.47}
{"Strand": "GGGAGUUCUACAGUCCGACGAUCACCAUGCAGGUGGGCAUCUUUGGGAAGUGGGUCAAGGGGGGGAUAGGGAGGGGGGUAACACUUUGGGAACAGGUGGUCCCAGGUCGUUUCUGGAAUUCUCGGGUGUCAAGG", "log2 enrichment": 1.36}
{"Strand": "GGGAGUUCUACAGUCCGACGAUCUCCUGUGCUACACAUCGUAUGUACCGAAUCGGGGAAAGGGGUUUGGGGAAAAAAAGGGGAAAGUAUUAUGUUACGCCGUUCGGAUCUGCAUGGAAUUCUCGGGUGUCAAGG", "log2 enrichment": -1.53}
